Published values of several laboratories.
Every numbered part comes from another study and shows a few of its results, in no order.
UniProt P51955, sequence (whole entry, looked up): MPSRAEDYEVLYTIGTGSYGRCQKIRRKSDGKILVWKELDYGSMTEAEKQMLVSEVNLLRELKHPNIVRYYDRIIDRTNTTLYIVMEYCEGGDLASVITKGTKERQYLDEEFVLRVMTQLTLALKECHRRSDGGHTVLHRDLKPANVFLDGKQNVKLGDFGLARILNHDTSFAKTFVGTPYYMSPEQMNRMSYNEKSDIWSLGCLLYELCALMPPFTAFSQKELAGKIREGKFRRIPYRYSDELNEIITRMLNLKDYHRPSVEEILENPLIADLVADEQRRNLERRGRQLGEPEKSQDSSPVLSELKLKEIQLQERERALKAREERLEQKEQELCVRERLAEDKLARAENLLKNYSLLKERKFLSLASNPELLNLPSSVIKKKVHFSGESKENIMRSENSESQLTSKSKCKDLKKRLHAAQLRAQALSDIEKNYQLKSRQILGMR
UniProt P43403, sequence (whole entry, looked up): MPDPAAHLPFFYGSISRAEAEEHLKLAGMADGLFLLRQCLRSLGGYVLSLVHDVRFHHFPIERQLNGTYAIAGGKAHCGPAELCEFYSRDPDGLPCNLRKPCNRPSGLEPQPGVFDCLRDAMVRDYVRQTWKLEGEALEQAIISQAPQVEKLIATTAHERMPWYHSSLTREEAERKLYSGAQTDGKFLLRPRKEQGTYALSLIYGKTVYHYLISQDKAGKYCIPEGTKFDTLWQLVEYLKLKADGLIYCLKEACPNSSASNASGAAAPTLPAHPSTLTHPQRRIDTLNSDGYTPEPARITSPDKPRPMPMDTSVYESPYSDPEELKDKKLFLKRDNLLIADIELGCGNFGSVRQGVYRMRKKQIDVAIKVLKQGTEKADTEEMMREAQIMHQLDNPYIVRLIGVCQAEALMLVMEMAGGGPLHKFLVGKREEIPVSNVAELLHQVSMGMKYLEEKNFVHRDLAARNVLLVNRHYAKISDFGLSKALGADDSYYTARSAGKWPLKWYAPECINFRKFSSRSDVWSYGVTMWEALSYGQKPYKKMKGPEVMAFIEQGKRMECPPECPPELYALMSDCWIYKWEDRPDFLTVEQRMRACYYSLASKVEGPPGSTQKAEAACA
UniProt Q9NYL2, sequence (whole entry, looked up): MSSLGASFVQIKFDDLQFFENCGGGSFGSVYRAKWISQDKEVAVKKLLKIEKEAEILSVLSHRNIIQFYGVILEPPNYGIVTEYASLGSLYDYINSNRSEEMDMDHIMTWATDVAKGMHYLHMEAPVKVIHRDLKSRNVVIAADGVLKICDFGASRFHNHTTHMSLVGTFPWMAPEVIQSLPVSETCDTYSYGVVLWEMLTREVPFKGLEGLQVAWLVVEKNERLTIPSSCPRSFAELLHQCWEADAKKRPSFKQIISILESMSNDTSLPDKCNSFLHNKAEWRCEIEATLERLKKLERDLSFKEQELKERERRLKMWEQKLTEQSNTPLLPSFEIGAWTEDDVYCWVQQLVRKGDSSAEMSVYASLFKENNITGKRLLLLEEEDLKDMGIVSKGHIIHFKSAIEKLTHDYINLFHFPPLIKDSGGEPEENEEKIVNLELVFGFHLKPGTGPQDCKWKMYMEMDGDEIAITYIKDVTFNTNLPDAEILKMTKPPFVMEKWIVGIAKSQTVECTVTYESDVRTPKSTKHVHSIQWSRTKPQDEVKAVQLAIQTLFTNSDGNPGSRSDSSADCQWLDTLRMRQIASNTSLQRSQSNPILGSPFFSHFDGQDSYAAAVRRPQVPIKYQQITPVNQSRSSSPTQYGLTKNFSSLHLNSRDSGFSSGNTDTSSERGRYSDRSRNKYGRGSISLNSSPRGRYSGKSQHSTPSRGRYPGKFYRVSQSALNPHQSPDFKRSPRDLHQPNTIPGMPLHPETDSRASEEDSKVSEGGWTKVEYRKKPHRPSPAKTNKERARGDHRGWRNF
UniProt Q96NX5, sequence (whole entry, looked up): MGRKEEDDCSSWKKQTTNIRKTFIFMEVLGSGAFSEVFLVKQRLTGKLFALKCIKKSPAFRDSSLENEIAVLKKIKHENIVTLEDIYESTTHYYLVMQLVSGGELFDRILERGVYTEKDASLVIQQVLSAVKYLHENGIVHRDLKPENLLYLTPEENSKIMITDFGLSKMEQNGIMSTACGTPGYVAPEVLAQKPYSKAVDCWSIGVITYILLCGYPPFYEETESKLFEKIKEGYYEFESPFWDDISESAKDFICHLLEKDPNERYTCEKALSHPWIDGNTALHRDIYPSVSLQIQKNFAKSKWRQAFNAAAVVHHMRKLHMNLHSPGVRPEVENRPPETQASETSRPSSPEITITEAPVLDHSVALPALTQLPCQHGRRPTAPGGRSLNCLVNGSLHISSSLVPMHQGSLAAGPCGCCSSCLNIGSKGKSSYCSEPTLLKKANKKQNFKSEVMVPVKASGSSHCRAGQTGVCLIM
UniProt O15146, sequence (whole entry, looked up): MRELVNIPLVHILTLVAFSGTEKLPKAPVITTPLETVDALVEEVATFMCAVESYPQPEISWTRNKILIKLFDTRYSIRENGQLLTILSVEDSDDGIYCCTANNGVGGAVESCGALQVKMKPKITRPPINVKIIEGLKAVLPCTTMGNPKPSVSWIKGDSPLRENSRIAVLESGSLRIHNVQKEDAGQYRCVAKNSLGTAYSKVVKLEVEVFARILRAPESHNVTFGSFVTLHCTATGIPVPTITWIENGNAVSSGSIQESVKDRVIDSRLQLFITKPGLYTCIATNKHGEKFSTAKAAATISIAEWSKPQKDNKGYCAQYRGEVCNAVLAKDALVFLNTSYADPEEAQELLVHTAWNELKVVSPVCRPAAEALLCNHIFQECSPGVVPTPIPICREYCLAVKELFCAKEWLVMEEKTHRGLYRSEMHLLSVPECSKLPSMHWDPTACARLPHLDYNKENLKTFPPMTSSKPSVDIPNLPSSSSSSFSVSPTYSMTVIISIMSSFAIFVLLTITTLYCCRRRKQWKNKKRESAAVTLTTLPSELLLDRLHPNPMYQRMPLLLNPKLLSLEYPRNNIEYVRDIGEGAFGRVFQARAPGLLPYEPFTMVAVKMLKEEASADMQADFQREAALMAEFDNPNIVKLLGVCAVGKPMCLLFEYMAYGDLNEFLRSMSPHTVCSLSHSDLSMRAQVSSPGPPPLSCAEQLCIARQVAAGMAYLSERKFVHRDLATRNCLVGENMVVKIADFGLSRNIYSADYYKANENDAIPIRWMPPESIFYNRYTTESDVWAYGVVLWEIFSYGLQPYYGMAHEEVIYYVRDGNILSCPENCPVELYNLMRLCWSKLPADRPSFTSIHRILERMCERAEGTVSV
UniProt Q9UM73, sequence (whole entry, unmodified, looked up): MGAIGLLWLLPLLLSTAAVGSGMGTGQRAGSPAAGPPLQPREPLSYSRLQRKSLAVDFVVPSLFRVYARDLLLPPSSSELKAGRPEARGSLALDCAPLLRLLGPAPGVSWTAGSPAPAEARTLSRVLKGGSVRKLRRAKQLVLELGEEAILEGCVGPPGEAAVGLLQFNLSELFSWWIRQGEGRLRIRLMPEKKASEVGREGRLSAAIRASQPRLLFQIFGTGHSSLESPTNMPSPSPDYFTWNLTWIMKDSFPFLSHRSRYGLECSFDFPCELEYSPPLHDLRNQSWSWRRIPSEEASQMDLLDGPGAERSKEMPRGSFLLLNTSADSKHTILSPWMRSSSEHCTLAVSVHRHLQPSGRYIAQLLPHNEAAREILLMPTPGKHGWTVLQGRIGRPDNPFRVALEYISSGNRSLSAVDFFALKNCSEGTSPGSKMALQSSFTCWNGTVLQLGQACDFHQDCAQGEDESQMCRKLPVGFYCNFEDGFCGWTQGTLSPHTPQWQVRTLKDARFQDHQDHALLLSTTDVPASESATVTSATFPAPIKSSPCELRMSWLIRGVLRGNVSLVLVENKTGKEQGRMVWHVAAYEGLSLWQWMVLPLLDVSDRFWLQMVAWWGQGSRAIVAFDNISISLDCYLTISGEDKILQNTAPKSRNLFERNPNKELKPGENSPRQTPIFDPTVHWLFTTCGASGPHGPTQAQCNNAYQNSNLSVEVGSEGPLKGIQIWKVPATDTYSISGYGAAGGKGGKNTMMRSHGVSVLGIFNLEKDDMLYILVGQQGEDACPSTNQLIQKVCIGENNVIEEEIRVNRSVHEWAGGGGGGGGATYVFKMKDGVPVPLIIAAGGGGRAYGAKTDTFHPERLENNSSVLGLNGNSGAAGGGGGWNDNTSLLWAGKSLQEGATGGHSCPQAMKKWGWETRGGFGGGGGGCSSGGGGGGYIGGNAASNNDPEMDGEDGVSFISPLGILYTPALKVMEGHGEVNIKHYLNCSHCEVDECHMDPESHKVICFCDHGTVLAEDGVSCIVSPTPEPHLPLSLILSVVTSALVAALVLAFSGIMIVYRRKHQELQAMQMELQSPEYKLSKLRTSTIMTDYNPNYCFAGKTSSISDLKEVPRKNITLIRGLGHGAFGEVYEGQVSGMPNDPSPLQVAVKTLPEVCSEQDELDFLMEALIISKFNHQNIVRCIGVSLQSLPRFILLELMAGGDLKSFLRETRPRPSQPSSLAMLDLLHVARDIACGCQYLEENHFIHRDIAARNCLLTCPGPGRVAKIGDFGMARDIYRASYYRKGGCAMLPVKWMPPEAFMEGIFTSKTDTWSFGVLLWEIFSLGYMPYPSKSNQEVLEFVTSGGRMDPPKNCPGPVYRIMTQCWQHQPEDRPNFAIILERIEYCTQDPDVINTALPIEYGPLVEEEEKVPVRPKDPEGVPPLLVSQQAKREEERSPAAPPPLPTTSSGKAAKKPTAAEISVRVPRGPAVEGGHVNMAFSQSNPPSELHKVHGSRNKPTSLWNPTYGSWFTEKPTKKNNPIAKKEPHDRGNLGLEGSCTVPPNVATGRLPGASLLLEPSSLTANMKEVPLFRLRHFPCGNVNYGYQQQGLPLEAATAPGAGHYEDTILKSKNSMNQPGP

Study 1
Species: human
Medium: microsomes or S9
Concentration: 2 µM
Time: 0.5 h
SMILES | remaining compound
COn1c(-c2ccc(C(C)(C)C)cc2)cc2cc3cccccc-3c2c1=O | 11.5%
COCc1nn2c(nnc3c(=O)n(NC(C)=O)ccc32)c1-c1ccc(F)cc1 | > 100%
COc1cc(C2CCNCC2)ccc1Nc1ncc(Cl)c(Nc2ccccc2CS(=O)(=O)C(C)C)n1 | 21.3%
CC(C)CCNC(=O)c1c(OCC2CC2)cc(=O)n2c1CCOCC2 | 64.5%
CC(C)(C)C1CCc2c(sc3ncnc(O)c23)C1 (stereo not shown) | > 100%
CCn1cc(CN(C/C=C/c2ccco2)CC(C)C)cn1 | 1.45%
O=c1c2cc3c(=O)n(C4CCCC4)ccc3nc2ccn1-c1ncn[nH]1 | > 99%
O=C(O)C1C(c2ccccc2)C(C(=O)O)C1c1ccccc1 (stereo not shown) | 91.8%
O=S1(=O)N=C(N2CCN(c3ccccc3)CC2)c2ccccc21 | 85.3%
CC1(C)C(=O)Nc2ccc(S(=O)(=O)Nc3noc(-c4ccsc4)n3)cc21 | > 100%

Study 2
Observed: AlphaScreen signal
Technique: AlphaScreen counter screen
Medium: His6 peptide without bromodomain
Concentration: 50 µM
Setting: assay interference check
Structure (SMILES) | inhibition
N#Cc1c(NC(=O)c2cccc3ccccc23)sc2c1CCCC2 | 25.2%
Nc1nc(SCc2c(Cl)cccc2Cl)c2nc[nH]c2n1 | 35.4%
Fc1ccc(-c2[nH]c3ncccc3c2CN2CCCC2)cc1 | 2.05%
COc1cc2c(cc1OC)-c1[nH]nc(Nc3cccc(F)c3)c1C2 | 59%
COc1ccc(-c2[nH]c3ncccc3c2CN2CCCC2)cc1 | -1.65%
Cc1nc(Nc2n[nH]c3c2CN(C(=O)N[C@H](CN(C)C)c2ccccc2)C3(C)C)c2sccc2n1 | 18.6%
CC(=O)Cc1cc(-c2cc(CC(C)=O)[nH]n2)n[nH]1 | -1.25%
c1coc(-c2nnc(CSc3nnc(NC4CC4)s3)o2)c1 | 0.9%
COc1cc2ncnc(Nc3cccc(Br)c3)c2cc1OC | 20.8%

Study 3
Target: MAP kinase-activated protein kinase 5 (MAPKAPK5, Homo sapiens, UniProt Q8IW41)
Observed: enzyme activity
Mode: inhibitor
Concentration: 0.5 µM
Baseline: control
Construct (Q8IW41 1-473): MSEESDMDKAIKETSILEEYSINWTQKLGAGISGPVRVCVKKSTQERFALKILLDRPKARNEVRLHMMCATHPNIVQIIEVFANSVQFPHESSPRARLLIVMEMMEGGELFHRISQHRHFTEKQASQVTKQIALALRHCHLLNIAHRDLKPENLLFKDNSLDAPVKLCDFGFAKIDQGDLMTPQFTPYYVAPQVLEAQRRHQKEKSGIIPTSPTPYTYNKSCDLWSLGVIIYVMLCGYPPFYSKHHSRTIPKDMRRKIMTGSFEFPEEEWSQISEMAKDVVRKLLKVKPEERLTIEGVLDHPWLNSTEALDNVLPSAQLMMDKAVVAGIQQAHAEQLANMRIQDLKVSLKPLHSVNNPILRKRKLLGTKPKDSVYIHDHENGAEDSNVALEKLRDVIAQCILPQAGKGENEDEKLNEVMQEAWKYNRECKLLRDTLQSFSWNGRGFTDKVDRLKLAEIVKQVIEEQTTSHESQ
SMILES | remaining activity
Nc1nc(Nc2ccc(S(N)(=O)=O)cc2)nn1C(=S)Nc1c(F)cccc1F | 52.2%
CCN(CC)CCCCN1c2ccccc2Oc2ccc(Cl)cc21 | 95.9%
O=c1c(-c2ccc(F)cc2)c(-c2ccncc2)[nH]n1-c1ccc(Cl)cc1 | 99.7%
N#CC(c1ccnc(NCCc2cccnc2)n1)c1nc2ccccc2s1 (stereo not shown) | 98.3%
CNc1cc2c(Nc3cccc(Br)c3)ncnc2cn1 | 99.3%
O=Nc1c(-c2c(O)[nH]c3ccccc23)[nH]c2ccccc12 | 101%
c1cc(-c2cnn3cc(-c4ccc(OCCN5CCCCC5)cc4)cnc23)ccn1 | 91.3%
COc1cc2c(Nc3ccc(Br)cc3F)ncnc2cc1OCC1CCN(C)CC1 | 94.7%
Clc1ccc(Nc2nnc(Cc3ccncc3)c3ccccc23)cc1 | 97.8%
O=C(c1ccccc1)c1ccc(N2CCOCC2)cc1O | 99.8%
FC(F)(F)c1ccc(/C=C/c2nc(COc3ccc(CCCCn4ccnn4)cc3)co2)cc1 | 101%

Study 4
SMILES: COc1cccc(CNC(=O)c2nc3scc(COCc4ccc(C(=O)O)cc4)c3c(=O)[nH]2)c1
Concentration: 1 µM
target | observed | technique | remaining binding [%]
PLK4 (Homo sapiens, UniProt O00444) | cell-free assay | competition with immobilised ligand | 83
CAMK1G (Homo sapiens, UniProt Q96NX5) | cell-free assay | competition with immobilised ligand | 100
ZAP70 (Homo sapiens, UniProt P43403) | cell-free assay | competition with immobilised ligand | 67.1
CDC42BPG (Homo sapiens, UniProt Q6DT37) | – | competition binding | 99.4
MAP3K20 (Homo sapiens, UniProt Q9NYL2) | cell-free assay | competition with immobilised ligand | 85.5
NEK2 (Homo sapiens, UniProt P51955) | cell-free assay | competition with immobilised ligand | 100
SLK (Homo sapiens, UniProt Q9H2G2) | cell-free assay | competition with immobilised ligand | 100
STK32B (Homo sapiens, UniProt Q9NY57) | cell-free assay | competition with immobilised ligand | 93.4
KIT (Homo sapiens, UniProt P10721, V559D) | cell-free assay | competition with immobilised ligand | 99.1
MUSK (Homo sapiens, UniProt O15146) | cell-free assay | competition with immobilised ligand | 100
BRSK2 (Homo sapiens, UniProt Q8IWQ3) | cell-free assay | competition with immobilised ligand | 77.3
TGFBR1 (Homo sapiens, UniProt P36897) | cell-free assay | competition with immobilised ligand | 83.2
ALK (Homo sapiens, UniProt Q9UM73, L1196M) | cell-free assay | competition with immobilised ligand | 94.8

A few entries again (study 4):
target | observed | technique | remaining binding [%]
CAMK1G (Homo sapiens, UniProt Q96NX5) | cell-free assay | competition with immobilised ligand | 100
ZAP70 (Homo sapiens, UniProt P43403) | cell-free assay | competition with immobilised ligand | 67.1
CDC42BPG (Homo sapiens, UniProt Q6DT37) | – | competition binding | 99.4
MAP3K20 (Homo sapiens, UniProt Q9NYL2) | cell-free assay | competition with immobilised ligand | 85.5
NEK2 (Homo sapiens, UniProt P51955) | cell-free assay | competition with immobilised ligand | 100
SLK (Homo sapiens, UniProt Q9H2G2) | cell-free assay | competition with immobilised ligand | 100
STK32B (Homo sapiens, UniProt Q9NY57) | cell-free assay | competition with immobilised ligand | 93.4
